Assay results gathered from unrelated publications.
Each numbered part is a random draw from the data of one study; scales do not carry over between parts. Positions count from the first letter of the parent shown.

Study 1 — method: protein binding microarray; form: double-stranded DNA, one strand shown; sample: in vitro; tested at: not given; relative to: not given; reading: higher = stronger binding; endpoint: E-score
Target: Histone acetyltransferase KAT6A, winged helix 2, GST fusion (KAT6A, Homo sapiens, UniProt Q92794, residues 85-181)
Setting: 8-mer, flanks averaged, mean of 2 arrays, mostly near background
Construct (chain): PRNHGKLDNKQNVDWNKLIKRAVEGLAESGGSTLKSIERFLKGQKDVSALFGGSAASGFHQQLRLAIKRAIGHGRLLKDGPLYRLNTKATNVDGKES
GACGTTAC: -0.0786
CCACTTAA: 0.0773
GGCGTCTA: -0.0509
AATGTACA: -0.0775
CCGATCGC: -0.000655
CCCCGCGC: 0.233
ACTCCCCA: 0.0164
ATGCTTCA: 0.081
ACATAAGA: 0.152
CGATGCAA: 0.0342
CTCCGGAA: 0.0162
GTTGAGAA: -0.0587
CTGATTAC: -0.077
CGGGCAAA: 0.158
ACGTATGC: -0.138
GGACGATA: -0.0949
ATTGTAAG: -0.0341

Study 2 — target: CCND2, cyclin fold, Cln2 fusion (human); method: yeast growth competition, sequencing; sample: yeast; setting: weak parent motif; relative to: not given; reading: higher = stronger binding; endpoint: normalised enrichment score
Parent: DBF4 docking peptide (human); DDIVSKLVFDFVE
L7A: -0.124
D1A: -0.0927
K6A: -0.248
V4A: 0.149
E13A: 0.0738
V12A: -0.156
F11A: -0.00791

Study 3 — target: DBP, bZIP domain (human); method: DHFR protein complementation; sample: yeast; relative to: wild-type JUN-FOS pair; reading: higher = stronger binding; endpoint: binding fitness
Setting: single substitutions, most at no-binding floor
Parent: JUN, bZIP domain (human); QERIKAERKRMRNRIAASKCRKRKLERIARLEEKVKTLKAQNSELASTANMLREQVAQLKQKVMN; partner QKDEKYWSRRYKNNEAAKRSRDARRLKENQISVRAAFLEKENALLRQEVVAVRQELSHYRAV
S47R: -1.35 natural log
R53P: -1.48 natural log
Q41R: -1.44 natural log
K34T: -1.3 natural log
R53V: -1.45 natural log
M51V: -1.44 natural log
M51P: -1.5 natural log
E44N: -1.49 natural log
T37F: -1.51 natural log
T37I: -1.6 natural log
S47P: -1.41 natural log
A40W: -1.5 natural log
K34M: -1.35 natural log
A49M: -1.52 natural log
K39L: -1.45 natural log
E32W: -1.47 natural log
Q55R: -1.37 natural log
Q41M: -1.46 natural log
A46G: -1.42 natural log
K36I: -1.51 natural log
I28Y: -1.43 natural log
E32M: -1.54 natural log

Study 4 — method: RNA Bind-n-Seq; form: RNA; sample: in vitro; tested at: 365 nM; relative to: no-protein control; reading: higher = stronger binding; endpoint: RBNS enrichment (R)
Target: RNA binding protein fox-1 homolog 2, RRM domain, GST-SBP tag (RBFOX2, Homo sapiens, UniProt O43251-10, residues 100-194)
Setting: natural RNA segment, single round, ends assumed
Constant ends, left off below: GGGAGUUCUACAGUCCGACGAUC … UGGAAUUCUCGGGUGCCAA
UCCACUCAUCUCGAAGGGUUGUGGUCCCCCCAGGAAAGUCUCGAGACAAUGGGGACAUUGUUGGUAGCUGUUCGGUAGAUGCUCUUUGCUAUUUAUAAGUGACUUUAAAC: 0.574
UUUUUAUUCAGUGAGAACCAAGCUAGCCUUGAGUAAUUUUUAUCUUGUCUUCCUAAAACACUAUUAAGCUUAUUGUACUUUUAAGAAAAAUUGCCUUACGUACAUUCCUU: 0.775
GUGCUCCUGCACAGGCUUCUGCACCUCCAAGCACAGCUGAUCUGAUCCAAGGCUGUUGGGCCUCUCAAGAUUUGAGAACCACAAAGCAGGAGGUGAGCAUAUUCUCUUGG: 0.372
GCCCAGAAGUGCCUUGGCUCCAGCCCUGUACCCCUUGGUACUGCCUCUGAACACUCUGGUUUCCCCACCCAACUGCGGCUAAGUCUCUUUUUCCCUUGGAUCAGCCAAGC: 0.402
AUUGUUUUAUGGCUGAAAUAGAAAGCUAAUGAAGAGGCCUACCUGGAUCCAGAUUUUAUGUUAACAUGGCAGCAAAACUAGGAAAAUGGGAAGAAAUUACUUGCGGGGUG: 0.575
UCAGAGUUAAGUCAAGGAGUGUUCUUUGCCCCAGUCUCCCUAAGACAGUGCCUAUACAUUGGACAAAAAGUCCAAGGAGAGCCAAACUAGUGCAGUAAACGUUUGUACCC: 0.405
UGCUGGGACUGGGCUGGUUUUGUCCUUGAAGUGGUCAGGAUACAGGACAAGGGCAGCCCCACCCCAUCCAGCCUGGGCUCCCCGCAGACCCUUGCUGCUCCCGUGGCCUG: 0.937
CGCUCACGCUCUCGUCCUUAGGGAGGAGCUGACUUAGCAGCCCCUCAGCCCAACCCCCUGCUUCCUGUUGGCUUUUGGGUAGCACUUGCCAUUAACAACAGCAGCCUAGA: 9.64
UAUAUUUAAUUUAUAAAUUUCGGACUGAUAAAAAAAUAGAGUUUUGGAAAACUAUAAAAAAUGCUUUGUUAAUGUGUGUAUUCCUAUGUAAAACACAUGGCUUCUUCUGU: 0.812
AUUGGUCUCAAGCGCCAUCAUACUGGAUAUGAGCAAUUUUAGUAACUGCAAUCUGAUUGAUUAUAUUACAGAAUACAUACAAAAAAACAAAGUUGUCUUACCUGUCAGUG: 0.365
GGUCAGGGCUUAUAGCAGGAUGUCUGGCUGCACCUGGCAUGACUGUUUGUUUCUCCAAGCCUGCUUUGUGCUUCUCACCUUUGGGUGGGAUGCCUUGCCAGUGUGUCUUA: 0.594
AGGGAGACAGUUACCUAGACUACCAGGUAGAAGGGACAGGGGUCAGGUCAACCUCACACUGAUAUGCUCCUCGACUAGAGAGGUCUCCAAGCCCAGAACAGAGACUUGAA: 1.05

Study 5 — method: RNA Bind-n-Seq; form: RNA; sample: in vitro; tested at: not given; relative to: input RNA pool; reading: higher = stronger binding; endpoint: bound/input enrichment
Target: RING finger protein unkempt homolog, zinc fingers 1-6, GST-SBP tag (UNK, Homo sapiens, UniProt Q9C0B0, residues 30-357)
Chain of UniProt Q9C0B0 (30-357, looked up): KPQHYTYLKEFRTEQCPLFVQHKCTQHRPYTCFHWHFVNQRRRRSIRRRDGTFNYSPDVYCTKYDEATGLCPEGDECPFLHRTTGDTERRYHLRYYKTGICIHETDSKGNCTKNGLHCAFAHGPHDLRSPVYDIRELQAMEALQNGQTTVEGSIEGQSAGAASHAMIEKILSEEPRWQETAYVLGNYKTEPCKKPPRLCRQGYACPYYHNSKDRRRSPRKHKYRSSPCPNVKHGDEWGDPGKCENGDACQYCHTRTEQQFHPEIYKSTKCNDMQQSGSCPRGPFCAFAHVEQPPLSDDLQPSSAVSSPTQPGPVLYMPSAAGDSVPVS
Setting: RNA with constant flanks, human-mouse chimeric sites, ends assumed
Constant ends, left off below: GGGAGUUCUACAGUCCGACGAUC … CAACAGAGGAUUGAGCAUCA
UCUGGCCACACUCGUGUGUAUGGUGUUUGCUUUGUGGACACUUCACUGGGAAAGUUUUUCAUCGGCCAGUUUUCGGAUGACCGCCACUGUUCCAGAUUUAGGACGCUAGUGGCUCACUAU: 0.184 ratio
GCUCCUCUUCCGCACUCCCCUGCCUGCCACUGGGCUGGGACCAGAAUCCAGCUUUCUUUUAAAACUCUCAGUGUAACUGUAUCCCGUGACAUUUCAUUUUUUUUAAAUAGUGUAUUUUUU: 3.81 ratio
AGUUCCAAACCACCAUCAGAAAUGAAGGAUGAGACUACCAGACGAGCCAAAACAGCUGCGCUACAGAAAAGUAAACUUAACCUUGCAGAGUUCCUUAAUGAAGAUACAAGUUAAGAGAGC: 0.138 ratio
UUUCUACUGCAGCAAACGAUGCUAAGAGUGAAGGAUCCUAAGAAGUCCCUGGAUUUUUAUACUAGAGUUCUUGGACUGACCCUCCUGCAGAAGCUUGACUUCCCUGCUAUGAAGUUCUCG: 0.163 ratio
UCCCAAAUUAUAAGGCAAGAAGGAGCCUUGAGACAAACACUCCACACACAGGGAAGGCGAUAACAUUGUAAAUUGGUUUACAUUUUUUCCCCCUGUGGAUUUUUCUAGAGGUCAUAGUGC: 0.37 ratio
AGAGAUAAGACAUCCAGAAAUAUGAGAGGCUCCCGGAUGAAUGGGUUGCCUAGCCCCACUCAUAGUGCCCACUGUAGCUUCUACCGAACCAGAACCUUGCAGGCACUGAGUAAUGAGAAG: 0.167 ratio
GCAAGAGAUGAUGAGGCGGCAGCUGUUGCCCUUUCCUCUCUCGUUCAUGCUUUGGAUGAGUUAAACAUGGUCGCCAUAGUUCGAUAUGCUUAUGACAAAAGAUCUAAUCCUCAAGUUGGU: 0.284 ratio
UACUCAACUUUCUUGCCACAUUUUGAAUUCCAAGACAUUAUCCCUCCAGAUGACUUCCUAACGAGUGAUGAAGAGCAAGAUUUGGUUUUAUUUGGAACUAUGAGAGGACAAGUUGUUGGA: 0.168 ratio
CUGGCACUCUAUCAGAUAUAUUAAUUUUUUAAUGUAGAUAAAAUUUCAAAAAUGAAUGGCUACUUUACACGUUUAACUAGGGUUUUACUAUAUAUGUGUGUGUAUAUAUAUAUAUAUAUA: 20.9 ratio
GGCCUGGACCUUCCUGGGGCUAGUACAAAUAGCGGCAGUGGAGGCUCGAGAGGAAAGUUUGUUAGUGGAGGCAGUGGUAGAGGCCGUCAUGUACGGUCCUUUACUCGAUAGAUGUGUUCU: 0.287 ratio
AAAGAGUGGAUAGAGUGUGCACACGGGAUCGGUGGGACCCGGGCGAAAAAGGAGUGCAAGAUAGAAUAUGAUGAUUUCGAAGAGUGCUUGCUUCGGUACAAAACGAUGAGGCGAAUGCAU: 1.42 ratio

Study 6 — method: DHFR PCA, deep sequencing; sample: yeast; together with: (+)-ABA 1.4 µM; relative to: wild-type fitted maximum; reading: higher = stronger binding; endpoint: relative binding score
Target: ABI1, truncated, D143A, DHFR fusion (Arabidopsis thaliana)
Setting: methotrexate growth selection, single substitutions
Parent: PYL1, truncated, DHFR fusion (Arabidopsis thaliana); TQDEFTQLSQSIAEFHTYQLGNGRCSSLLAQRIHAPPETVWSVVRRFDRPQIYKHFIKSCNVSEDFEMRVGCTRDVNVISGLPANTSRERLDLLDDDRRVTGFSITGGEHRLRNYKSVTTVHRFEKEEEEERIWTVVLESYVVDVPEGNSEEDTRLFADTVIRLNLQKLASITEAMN; partner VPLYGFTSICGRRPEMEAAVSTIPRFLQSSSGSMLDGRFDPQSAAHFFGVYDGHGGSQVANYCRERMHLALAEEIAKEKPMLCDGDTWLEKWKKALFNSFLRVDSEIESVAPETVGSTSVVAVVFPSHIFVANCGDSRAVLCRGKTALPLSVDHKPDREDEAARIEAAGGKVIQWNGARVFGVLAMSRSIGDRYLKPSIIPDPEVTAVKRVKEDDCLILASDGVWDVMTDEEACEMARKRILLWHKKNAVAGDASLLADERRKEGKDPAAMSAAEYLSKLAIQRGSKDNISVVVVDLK
E131R: 64.8%
P37K: -1.94%
E147R: 23.1%
H122D: 2.92%
C72L: 8.21%
V142W: -23%
A30Q: 43.7%
I57D: -10.1%
A170G: 8.51%
S9P: 8.89%
S42T: 26.4%
N85L: 64.7%
G148R: 1.7%
R46V: -20.7%
D153G: 1.44%
L29Y: 1.42%
S117P: 12.7%
D65F: 11.6%
S80K: -12.6%
V70K: 11%
P146W: -10.7%
A84G: 51.2%
L91D: -2.36%
S9M: 48.9%

Excerpt of the above (study 3):
R53P: -1.48 natural log
Q41R: -1.44 natural log
K34T: -1.3 natural log
R53V: -1.45 natural log
M51V: -1.44 natural log
M51P: -1.5 natural log
E44N: -1.49 natural log
T37F: -1.51 natural log
T37I: -1.6 natural log
S47P: -1.41 natural log
A40W: -1.5 natural log
K34M: -1.35 natural log
A49M: -1.52 natural log
K39L: -1.45 natural log
E32W: -1.47 natural log
